# Measured values collected from several papers.
# A part holds a random share of what one study measured. Substitutions count along the parent as printed.

# Block 1 — technique: universal PBM; molecule type: double-stranded DNA, one strand shown; medium: in vitro; tested at: not given; reading: higher = stronger binding
# Target: Sal-like protein 4, full length isoform B (SALL4, Homo sapiens, UniProt Q9UJQ4-2, residues 1-616)
# Notes: 8-mer, flanks averaged, mean of replicates
Sequence,E-score
CTAACCAC,-0.0503
GACTCCTC,-0.0752
AATTGCCT,0.177
TCGATGCA,-0.0895
CATGTTCC,-0.0877
CTCAGGTA,-0.0607
ATTCTGAA,0.134
CAACGATG,-0.029
CTCAGCCC,-0.214
CTGGTTAC,-0.182
AGGGCCTG,-0.317

# Block 2 — target: CCNA1, cyclin fold, Cln2 fusion (human); technique: yeast growth competition, sequencing; medium: yeast; notes: weak parent motif; reference: not given; reading: higher = stronger binding
# Parent: WEE1 docking peptide (human); CTLRQKLIFSPCS
Variant,normalised enrichment score
CTLAQKLIFSPCS [R4A],-0.365
CTLRQKLIFSPAS [C12A],-0.211
CTLRQALIFSPCS [K6A],-0.0818
CALRQKLIFSPCS [T2A],-0.196
CTLRQKLIFSACS [P11A],-0.0304
CTLRQKLIFAPCS [S10A],0.0163

# Block 3 — technique: RNA Bind-n-Seq; molecule type: RNA; medium: in vitro; tested at: 1 µM; notes: whole 134-nt RNA, ends assumed; added: 150 mM KCl; reference: input library; reading: higher = stronger binding
# Target: Ras GTPase-activating protein-binding protein 1, C-terminal RGG region (G3BP1, Homo sapiens, UniProt Q13283)
# Sequence of UniProt Q13283 (whole entry, looked up): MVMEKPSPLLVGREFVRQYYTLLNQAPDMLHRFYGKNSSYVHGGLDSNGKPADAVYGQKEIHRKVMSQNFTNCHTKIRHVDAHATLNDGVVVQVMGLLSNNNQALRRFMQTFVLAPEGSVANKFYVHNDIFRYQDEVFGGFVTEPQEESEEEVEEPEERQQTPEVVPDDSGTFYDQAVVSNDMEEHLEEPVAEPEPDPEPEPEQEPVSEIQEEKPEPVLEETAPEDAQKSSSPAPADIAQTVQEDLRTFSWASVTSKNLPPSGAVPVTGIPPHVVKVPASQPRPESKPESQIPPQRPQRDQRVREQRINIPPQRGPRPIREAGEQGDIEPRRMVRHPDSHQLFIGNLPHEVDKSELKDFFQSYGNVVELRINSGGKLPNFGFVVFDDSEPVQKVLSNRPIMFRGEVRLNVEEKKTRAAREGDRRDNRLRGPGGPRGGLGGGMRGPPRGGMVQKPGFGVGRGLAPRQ
# Constant ends, left off below: GGGAGUUCUACAGUCCGACGAUC … UGGAAUUCUCGGGUGUCAAGG
Sequence,log2 enrichment
AGUCCUGUGCUACACAUCGUAUGUACCGAAUCGGGGAAAAAGGGGUUUGGGGAGGGGAAAGUAUUAUGUUACGCCGUUCGGAUCUGCACU,3
UGGGAGGUGGAUUUUGUUUAUUUUUUUAGCUCAUUUCCAGGGGUGGGAAUUUUUUUCUAAUAUGUGUCAUGAAUAAAGUUGUUUUUGAAA,2.59
ACCAUGCAGGUGGGCAUCUUUGGGAAGUAAAGCAAGGGGGGGAUAGGGAGGGGGGUAACACUUUGGGAACAGGUGGUCCCAGGUCGUUUC,-0.914
UCAAGUCCUGUGCUACACAUCGUAUGUACCGAAUCGGAAAGGAAAGGGAAAGGGAAAGUAUUAUGUUACGCCGUUCGGAUCUGCACUUCC,-1.33
UUAGGGAUGUGGCCAUAGAAUUCUCUCAGGAGGAGUGGAAAUGCCUGGACCCUGCUCAGAGGAUCUUAUACAGGGACGUGAUGUUGGAGA,0.318
CCUGUGCUACACAUCGUAUGUACCGAAUCAAAUUUUUUUAAACCCCCAAACCCCCCCAAAAAAGUAUUAUGUUACGCCGUUCGGAUCUGC,-1.04
AGUCCUGUGCUACACAUCGUAUGUACCGAAUCGGUUUUUGGUUUUUGGUUUUUUUGGAAAGUAUUAUGUUACGCCGUUCGGAUCUGCACU,-1.88
UGAACCUUCCAAUAGCAACCAAGAAAUAAACUCUGAUGACAGACGACCCCAAUGGAGACGAGAAGACCGAAUUCCUUACCAAGACAGAGA,-0.861
ACCUUCACGGCAUGGUGCAACUCCCACCUGCGGAAGGCAGGCACACAGAUCGAGAACAUUGAUGAGGACUUCCGAGACGGGCUCAAGCUC,-0.178

# Other studies, line by line
Molecule,target,test,system,conditions,scale,endpoint,result
"PhoQ, residues 284 288 289 292 302 303 SACGEM","PhoP, residues 12 14 15 18 19 SGWQI (Escherichia coli, UniProt P23836)","Sort-seq, measured: YFP reporter",E. coli,"PhoQ-PhoP variant library, added: 10 µM Mg2+","reference: high Mg2+ state, higher = stronger signaling",fold induction,1.37

# Excerpt of the above (block 3):
Sequence,log2 enrichment
AGUCCUGUGCUACACAUCGUAUGUACCGAAUCGGUUUUUGGUUUUUGGUUUUUUUGGAAAGUAUUAUGUUACGCCGUUCGGAUCUGCACU,-1.88
UGAACCUUCCAAUAGCAACCAAGAAAUAAACUCUGAUGACAGACGACCCCAAUGGAGACGAGAAGACCGAAUUCCUUACCAAGACAGAGA,-0.861
ACCUUCACGGCAUGGUGCAACUCCCACCUGCGGAAGGCAGGCACACAGAUCGAGAACAUUGAUGAGGACUUCCGAGACGGGCUCAAGCUC,-0.178
